Experimental data of several laboratories.
Every numbered part comes from another study and shows a few of its results, in no order. Positions count from the first letter of the parent shown.

Study 1
Target: Centromere-binding protein 1, full length, N-terminal tag (CBF1, Saccharomyces cerevisiae, UniProt P17106, residues 1-351)
Sequence of UniProt P17106 (whole entry, looked up): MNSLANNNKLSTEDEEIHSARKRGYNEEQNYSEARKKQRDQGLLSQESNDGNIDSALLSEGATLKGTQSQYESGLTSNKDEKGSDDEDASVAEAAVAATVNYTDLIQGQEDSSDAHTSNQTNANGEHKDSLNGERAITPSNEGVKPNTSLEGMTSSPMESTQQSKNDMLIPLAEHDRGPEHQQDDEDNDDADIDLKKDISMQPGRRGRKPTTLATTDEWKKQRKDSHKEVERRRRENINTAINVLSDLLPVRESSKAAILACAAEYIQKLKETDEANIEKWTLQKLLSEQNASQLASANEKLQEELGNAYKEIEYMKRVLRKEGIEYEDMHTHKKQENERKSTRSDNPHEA
Technique: protein-binding microarray
Form: double-stranded DNA, one strand shown
Sample: in vitro
Tested at: 0.8 µM
Notes: whole 60-bp probe, no competitor
Reading: higher = stronger binding
All sequences stand within: … GTCTTGATTCGCTTGACGCTGCTG
| Oligonucleotide | fluorescence intensity [a.u.] |
| --- | --- |
| GAAAATTTCAGTTTCCCCGTGGCAAGTGATAGTTAG | 587 |
| CTAGAAGAAAGTTAAACCGTGATTTATTACTTCTTC | 539 |
| GAAACAGCATTAATTATCGTGCCATTACTAAAATAG | 543 |
| CTACGAATTCCCGAGCACATGGAGTCGCTGAACTTC | 655 |
| GAACTTTGAATTACGCACATGCAGAACTCCTGTTAG | 629 |
| CTATCCCAGACGGGAAACGTGTCTCTCGCTTCTTTC | 535 |
| CCTAACTACTATAATCACCAGTGATAGCTTCGTACA | 523 |
| GAATTCGGTTTGCTGAACATCAGGGAAAAAAATTAG | 561 |
| CTATAAAGTACTCATTCCATCACCAAGATTAGTTTC | 515 |
| GAATTACTGTGCAATCACATGTACAAGGCTCTCTAG | 1640 |
| CTATTGTTTATATATCATCTGATCCATTAGCTGTTC | 1390 |
| GAAAAACGATCCGACAACGTGCATGGTAATTCATAG | 918 |
| CTAATTTTAGCTGATCACCAGAATGACGCAATCTTC | 568 |
| GAAGTTTTATCGTATCACGGGATTTTATGCTCTTAG | 3150 |
| CCTAACTACTATACTCAGGTGATATAGCTTCGTACA | 794 |
| CCTAACTACTATATTCAACTGACATAGCTTCGTACA | 565 |

Study 2
Target: CCNB2, cyclin fold, Cln2 fusion (human)
Technique: yeast growth competition, sequencing
Sample: yeast
Notes: weak parent motif
Relative to: not given
Reading: higher = stronger binding
Parent: WEE1 docking peptide (human); HKTFRKLRLFDTP
| Change | normalised enrichment score |
| --- | --- |
| HKTFRKLRLFDTS [P13S] | -0.00289 |
| HKPFRKLRLFDTP [T3P] | 0.623 |
| HKTFMKLRLFDTP [R5M] | 0.00697 |
| HITFRKLRLFDTP [K2I] | 0.314 |
| HKTFPKLRLFDTP [R5P] | -0.457 |
| GKTFRKLRLFDTP [H1G] | 0.799 |
| HKTFRKLRLFDMP [T12M] | 1.29 |
| HKTFRKLRLFDVP [T12V] | 0.706 |
| HKTFRKLTLFDTP [R8T] | 0.639 |
| MKTFRKLRLFDTP [H1M] | 0.591 |
| HKTFIKLRLFDTP [R5I] | 0.586 |
| HKTFRKLFLFDTP [R8F] | -0.341 |
| HWTFRKLRLFDTP [K2W] | 0.0432 |
| HKTFRHLRLFDTP [K6H] | 0.247 |
| HKTFRKLPLFDTP [R8P] | 0.252 |
| HKTFRKLRLFDRP [T12R] | 0.84 |
| HKTFRKLRLFDTR [P13R] | 0.369 |
| PKTFRKLRLFDTP [H1P] | 0.905 |
| HKTFKKLRLFDTP [R5K] | 0.14 |
| HKTFRKLRLFDFP [T12F] | 0.535 |
| HKTFRKLCLFDTP [R8C] | 0.548 |
| HKIFRKLRLFDTP [T3I] | 0.248 |
| HMTFRKLRLFDTP [K2M] | 0.146 |
| HKTFRKLRLFDTE [P13E] | -0.886 |
| HKTFKKLRFFDTP [R5K L9F] | -0.404 |

Study 3
Target: FOSL2, bZIP domain (human)
Technique: DHFR protein complementation
Sample: yeast
Notes: single substitutions, most at no-binding floor
Relative to: wild-type JUN-FOS pair
Reading: higher = stronger binding
Parent: JUN, bZIP domain (human); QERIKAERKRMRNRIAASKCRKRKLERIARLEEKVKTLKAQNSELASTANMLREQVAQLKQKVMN; partner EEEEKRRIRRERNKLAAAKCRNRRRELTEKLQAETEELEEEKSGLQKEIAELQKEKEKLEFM
| Change | binding fitness [natural log] |
| --- | --- |
| E33W | -0.119 |
| M51C | 0.00877 |
| K34T | 0.0421 |
| L52H | -1.09 |
| S43A | 0.175 |
| K36W | -0.197 |
| Q55D | -0.2 |
| K34R | 0.185 |
| Q41K | -0.121 |
| N42V | 0.183 |
| K36A | 0.159 |
| V56P | -1.17 |
| A40R | 0.0857 |
| Q41I | 0.0682 |
| N42G | -0.907 |
| L31G | -0.737 |
| E54D | -0.0666 |
| N42Q | -0.512 |
| M51L | 0.107 |
| E33T | -0.0905 |
| L45R | -0.935 |
| A46N | 0.053 |
| I28G | -0.0609 |
| K34W | 0.11 |
| A29F | -0.116 |

Study 4
Target: ABI1, truncated, D143A, DHFR fusion (Arabidopsis thaliana)
Technique: DHFR PCA, deep sequencing
Sample: yeast
Notes: methotrexate growth selection, single substitutions
Added: (+)-ABA 0.032 µM
Relative to: wild-type fitted maximum
Reading: higher = stronger binding
Parent: PYL1, truncated, DHFR fusion (Arabidopsis thaliana); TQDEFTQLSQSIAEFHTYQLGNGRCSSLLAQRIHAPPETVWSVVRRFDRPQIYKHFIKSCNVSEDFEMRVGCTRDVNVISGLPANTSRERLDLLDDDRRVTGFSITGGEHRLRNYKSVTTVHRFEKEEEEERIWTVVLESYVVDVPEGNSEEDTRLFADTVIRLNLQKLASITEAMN
| Change | relative binding score [%] |
| --- | --- |
| P37C | 6 |
| H122W | -5.62 |
| L169H | 2.79 |
| T120E | 0.241 |
| R163Y | -14 |
| V40K | -7.22 |
| Y141C | 4.17 |
| I105Y | -9.92 |
| V44F | -6.16 |
| C72F | 1.37 |
| L8Y | 17.4 |
| G21I | 4.21 |
| A175L | 2.55 |
| A175D | 16.8 |
| V70N | 1.2 |
| A35L | -1.2 |
| G71N | 0.97 |
| R99D | 0.637 |
| E130H | 23.7 |
| L82F | 72.9 |
| D75E | 50.6 |
| R132V | 24 |

Study 5
Target: Histone acetyltransferase KAT6A, winged helix 1, GST fusion (KAT6A, Homo sapiens, UniProt Q92794, residues 1-85)
Technique: protein binding microarray
Form: double-stranded DNA, one strand shown
Sample: in vitro
Tested at: not given
Notes: 8-mer, flanks averaged, mean of 2 arrays, mostly near background
Relative to: not given
Reading: higher = stronger binding
Construct (chain): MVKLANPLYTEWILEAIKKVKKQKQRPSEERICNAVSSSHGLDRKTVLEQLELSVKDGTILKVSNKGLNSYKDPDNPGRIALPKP
| Oligonucleotide | E-score |
| --- | --- |
| GAAATGGC | 0.129 |
| AGCATCAC | -0.198 |
| GAGAGTGA | -0.088 |
| AACACCAC | -0.106 |
| GCGGCTGA | 0.245 |
| CGGAAGTA | 0.155 |
| ATGTACTC | 0.0379 |
| GCGCGCGA | 0.45 |
| CTGTGACC | 0.0236 |
| AGAATAGA | -0.162 |
| CGTGATTC | 0.0478 |
| AACATATT | 0.000135 |
| TCCTAGGA | -0.0596 |
| GAACGCCA | -0.0541 |
| TCTAGTAA | 0.117 |
| AACATGGG | -0.0432 |
| GGCTTGGA | -0.133 |
| CGGAGAAC | 0.0471 |
| ACCTACTC | -0.154 |

Study 6
Target: Sal-like protein 4, full length isoform A (SALL4, Homo sapiens, UniProt Q9UJQ4, residues 1-1053)
Sequence of UniProt Q9UJQ4 (whole entry, looked up): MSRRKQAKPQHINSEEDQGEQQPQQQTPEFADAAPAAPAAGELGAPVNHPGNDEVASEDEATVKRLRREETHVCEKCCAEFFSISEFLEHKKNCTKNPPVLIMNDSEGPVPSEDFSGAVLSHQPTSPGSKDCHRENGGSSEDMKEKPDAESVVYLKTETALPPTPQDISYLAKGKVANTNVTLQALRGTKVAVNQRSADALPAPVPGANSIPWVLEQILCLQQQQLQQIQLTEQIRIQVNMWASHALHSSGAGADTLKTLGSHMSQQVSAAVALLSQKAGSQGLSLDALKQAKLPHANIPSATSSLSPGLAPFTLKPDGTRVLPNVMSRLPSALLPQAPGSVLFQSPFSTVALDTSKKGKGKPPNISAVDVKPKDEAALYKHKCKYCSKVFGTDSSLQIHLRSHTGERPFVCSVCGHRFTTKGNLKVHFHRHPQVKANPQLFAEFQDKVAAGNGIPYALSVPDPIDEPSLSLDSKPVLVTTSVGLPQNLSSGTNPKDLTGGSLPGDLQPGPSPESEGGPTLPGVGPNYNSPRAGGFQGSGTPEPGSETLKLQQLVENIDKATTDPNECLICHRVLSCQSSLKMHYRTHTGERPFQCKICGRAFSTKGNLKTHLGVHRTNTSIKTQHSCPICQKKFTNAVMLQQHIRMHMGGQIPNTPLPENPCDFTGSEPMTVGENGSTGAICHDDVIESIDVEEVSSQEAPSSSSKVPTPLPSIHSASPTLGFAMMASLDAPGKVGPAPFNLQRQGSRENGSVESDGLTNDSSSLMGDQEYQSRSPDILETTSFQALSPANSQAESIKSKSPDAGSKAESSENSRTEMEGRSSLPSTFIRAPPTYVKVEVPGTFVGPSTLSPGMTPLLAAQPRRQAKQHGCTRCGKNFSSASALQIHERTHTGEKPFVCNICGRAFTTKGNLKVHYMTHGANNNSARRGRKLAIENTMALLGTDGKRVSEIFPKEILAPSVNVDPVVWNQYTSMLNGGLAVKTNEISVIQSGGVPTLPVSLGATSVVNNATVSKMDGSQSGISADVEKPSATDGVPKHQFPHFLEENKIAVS
Technique: universal PBM
Form: double-stranded DNA, one strand shown
Sample: in vitro
Tested at: 600 nM
Notes: 8-mer, flanks averaged, mean of replicates
Reading: higher = stronger binding
| Oligonucleotide | E-score |
| --- | --- |
| AGGTCACC | -0.273 |
| CACTCATA | 0.221 |
| ATCCCCGC | -0.286 |
| GTTGAGGA | -0.0743 |
| CACTGGAC | -0.119 |
| AATACCAA | 0.261 |
| CAGGCCGG | -0.355 |
| CCAGGGTA | -0.255 |
| AGTAAAGA | 0.148 |
| GGTCAGGA | -0.13 |
| CGTTATAA | 0.197 |
| ACCAAGGC | -0.247 |
| CTTATCGC | 0.00735 |
| GAACGAGC | 0.0172 |
| CTTAATCA | 0.216 |
| CACTCAGA | 0.113 |
| AGGTGAAT | 0.00568 |
| CCAGTTGC | -0.202 |
| CTACAAAC | 0.00411 |
| AAACCTGC | -0.128 |
| TCGCAACA | 0.0259 |
| CCCAAGTA | -0.0428 |
| ACCACGCT | -0.252 |
| GAGAGATC | -0.0713 |
| CGCAAGAA | -0.212 |

For quick reference, copied from above (study 2):
| Change | normalised enrichment score |
| --- | --- |
| MKTFRKLRLFDTP [H1M] | 0.591 |
| HKTFIKLRLFDTP [R5I] | 0.586 |
| HKTFRKLFLFDTP [R8F] | -0.341 |
| HWTFRKLRLFDTP [K2W] | 0.0432 |
| HKTFRHLRLFDTP [K6H] | 0.247 |
| HKTFRKLPLFDTP [R8P] | 0.252 |
| HKTFRKLRLFDRP [T12R] | 0.84 |
